Measurements of several laboratories.
Each line is one published result; not all experiments were run side by side. ± gives the spread as reported.
MED23 with ELF3: Mediator of RNA polymerase II transcription subunit 23, with ELF3 (MED23, Homo sapiens, UniProt Q9ULK4)
GRM2: Metabotropic glutamate receptor 2 (GRM2, Homo sapiens, UniProt Q14416)
Chain of UniProt Q14416 (whole entry, looked up): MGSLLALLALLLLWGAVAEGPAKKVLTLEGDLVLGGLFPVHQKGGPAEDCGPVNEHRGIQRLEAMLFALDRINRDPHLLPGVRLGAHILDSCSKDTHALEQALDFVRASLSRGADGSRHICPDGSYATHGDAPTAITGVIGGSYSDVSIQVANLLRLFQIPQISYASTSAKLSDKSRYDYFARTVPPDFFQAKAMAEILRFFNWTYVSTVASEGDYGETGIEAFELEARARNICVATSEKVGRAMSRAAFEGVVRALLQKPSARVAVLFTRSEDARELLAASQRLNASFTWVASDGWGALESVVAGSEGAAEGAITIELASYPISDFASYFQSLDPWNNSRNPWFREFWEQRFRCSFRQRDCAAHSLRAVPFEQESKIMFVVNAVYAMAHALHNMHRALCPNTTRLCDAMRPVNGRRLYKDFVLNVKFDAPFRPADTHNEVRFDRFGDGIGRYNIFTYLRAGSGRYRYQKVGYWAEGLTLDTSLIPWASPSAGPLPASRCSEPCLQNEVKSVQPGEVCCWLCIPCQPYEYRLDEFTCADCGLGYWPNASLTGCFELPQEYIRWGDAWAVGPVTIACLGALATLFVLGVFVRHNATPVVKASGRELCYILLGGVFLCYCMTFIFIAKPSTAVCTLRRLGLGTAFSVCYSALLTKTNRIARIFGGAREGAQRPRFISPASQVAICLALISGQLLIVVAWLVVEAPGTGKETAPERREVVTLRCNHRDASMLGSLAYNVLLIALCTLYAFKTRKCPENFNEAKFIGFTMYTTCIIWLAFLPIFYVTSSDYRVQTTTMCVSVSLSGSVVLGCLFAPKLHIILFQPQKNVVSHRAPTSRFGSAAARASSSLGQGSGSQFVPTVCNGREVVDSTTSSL
GPR35: G-protein coupled receptor 35 (GPR35, Homo sapiens, UniProt Q9HC97)
Chain of UniProt Q9HC97 (whole entry, looked up): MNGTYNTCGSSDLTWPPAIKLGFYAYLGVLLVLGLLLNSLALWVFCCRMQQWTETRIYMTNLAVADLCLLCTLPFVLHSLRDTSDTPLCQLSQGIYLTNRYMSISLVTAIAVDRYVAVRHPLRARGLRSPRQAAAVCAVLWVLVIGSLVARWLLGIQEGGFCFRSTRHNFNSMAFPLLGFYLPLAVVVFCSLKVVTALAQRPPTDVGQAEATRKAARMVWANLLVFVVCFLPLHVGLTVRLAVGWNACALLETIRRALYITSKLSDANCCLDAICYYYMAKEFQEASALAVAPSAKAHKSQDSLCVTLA
crk3 with CYC6: crk3, with CYC6 (Leishmania mexicana, UniProt O15851)
Chain of UniProt P07339 (whole entry, looked up): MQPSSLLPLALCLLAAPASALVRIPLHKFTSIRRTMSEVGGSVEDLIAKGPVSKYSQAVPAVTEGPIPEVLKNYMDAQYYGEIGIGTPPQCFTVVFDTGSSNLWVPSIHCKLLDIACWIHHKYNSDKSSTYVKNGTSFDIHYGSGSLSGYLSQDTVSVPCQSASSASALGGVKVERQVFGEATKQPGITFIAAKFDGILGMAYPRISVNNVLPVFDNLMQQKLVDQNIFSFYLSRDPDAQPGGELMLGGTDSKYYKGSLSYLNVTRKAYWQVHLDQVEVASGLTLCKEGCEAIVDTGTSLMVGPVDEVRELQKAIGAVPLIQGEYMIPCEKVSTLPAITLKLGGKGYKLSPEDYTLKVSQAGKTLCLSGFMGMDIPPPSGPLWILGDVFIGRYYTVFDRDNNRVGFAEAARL
Chain of UniProt Q00526 (whole entry, looked up): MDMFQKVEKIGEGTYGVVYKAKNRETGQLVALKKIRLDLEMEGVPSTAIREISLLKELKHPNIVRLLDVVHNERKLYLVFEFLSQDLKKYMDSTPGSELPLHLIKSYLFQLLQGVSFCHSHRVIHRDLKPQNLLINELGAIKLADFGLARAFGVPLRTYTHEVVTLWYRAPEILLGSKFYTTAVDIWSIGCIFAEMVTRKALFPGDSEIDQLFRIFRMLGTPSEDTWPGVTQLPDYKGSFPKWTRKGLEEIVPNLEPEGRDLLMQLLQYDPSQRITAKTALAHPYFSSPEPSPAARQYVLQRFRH

Compound	target	assay	system	setting	scale	measurement	value
CCC(=O)N1N=C(c2cccc(O)c2)CC1c1ccc(OC)cc1 (stereo not drawn)	MED23 with ELF3	SEAP reporter gene, inhibitor		10 µM, 12 h		inhibition	87%
Clc1c(-c2ccc(Oc3ccccc3)cc2)ccn2c(CC3CC3)nnc12	GRM2	agonist		no glutamate		Emax	50%
O=C(O)Cc1cc(O)ccc1O	GPR35	β-arrestin translocation, agonist, Tango reporter	U2OS GPR35-bla			EC50	inactive
O=C(C=Cc1cccs1)c1ccccc1O	MED23 with ELF3	SEAP reporter gene, inhibitor		10 µM, 12 h		inhibition	50%
O=C1Nc2ccc(S(=O)(=O)Nc3ccccc3)cc2C1=C1CCCC1	Cyclin-dependent kinase 3 (CDK3, Homo sapiens, UniProt Q00526)	kinase activity, inhibitor, kinase panel profiling		concentration not given		inhibition	33%
COc1ccc(C=CC(=O)c2ccccc2O)c2ccccc12	MED23 with ELF3	SEAP reporter gene, inhibitor		10 µM, 12 h		inhibition	80%
Cc1cc(Oc2ccc(-c3ccn4c(CC5CC5)nnc4c3C(F)(F)F)cc2F)ccn1	GRM2	agonist		no glutamate		Emax	77 ± 12%
O=C(C=Cc1ccco1)c1ccccc1O	MED23 with ELF3	SEAP reporter gene, inhibitor		10 µM, 12 h		inhibition	50%
CC(=O)Nc1cc(-c2ccccc2)n[nH]1	crk3 with CYC6	IMAP fluorescence polarisation		30 µM, with L. major CYC6		inhibition	17%
FC(F)(F)c1c(-c2ccc3c(ccn3-c3cccnc3)c2)ccn2c(CC3CC3)nnc12	GRM2	GTPγS binding, positive allosteric modulator		together with: EC20 glutamate	relative to: control glutamate response	Emax	424%
O=[N+]([O-])c1cccc(/C=N/Nc2nnc(N/N=C/c3cccc([N+](=O)[O-])c3)c3ccccc23)c1	iron(III)	UV-Vis titration		stoichiometry 2		binding constant	3.1e+10 M⁻²
COc1ccc(C=CC(=O)c2cccc(O)c2)cc1	MED23 with ELF3	SEAP reporter gene, inhibitor		10 µM, 12 h		inhibition	41%
O=C(O)C(=O)Cc1ccc(O)cc1	GPR35	dynamic mass redistribution, agonist	HT-29	1 h		EC50	inactive
CC(C)C[C@H](NC(=O)[C@@H](NC(=O)[C@H](CCONC(=N)N)NC(=O)OCc1ccccc1)C(C)C)[C@@H](O)CC(=O)NCCc1ccccc1	Cathepsin D (CTSD, Homo sapiens, UniProt P07339)				relative to: CTSD IC50 over plasmepsin V IC50	selectivity ratio	17 fold
COc1cc(OC)cc(-c2cc(NC(C)=O)[nH]n2)c1	crk3 with CYC6	IMAP fluorescence polarisation		30 µM, with L. major CYC6		inhibition	0%
COc1ccc(CNc2ccc(-c3ccn4c(CC5CC5)nnc4c3C(F)(F)F)cc2F)cn1	GRM2	agonist		no glutamate		Emax	64 ± 1%
COc1ccc2nc3c(cc2c1)c(=O)cc(C(F)(F)F)n3-c1ccc(Cl)cc1	iron(III)	UV-Vis titration		stoichiometry 1		binding constant	30 M⁻¹
CCCCn1ccn2c(-c3ccc(NC4CCOCC4)c(Cl)c3)c(C)nc2c1=O	GRM2	G protein activation, positive allosteric modulator		together with: glutamate at EC20	relative to: glutamate response	Emax	240 ± 6%
C(=N\Nc1nnc(N/N=C/c2ccco2)c2ccccc12)/c1ccco1	iron(III)	UV-Vis titration		stoichiometry 2		binding constant	1.51e+10 M⁻²
O=C(C=Cc1ccc(O)cc1)c1ccccc1O	MED23 with ELF3	SEAP reporter gene, inhibitor		10 µM, 12 h		inhibition	50%
FC(F)(F)c1c(-c2ccc(NC3CCOCC3)c(Cl)c2)ccn2c(CC3CC3)nnc12	GRM2	GTPγS binding, agonist, radiometric		cell membranes		Emax	72%
COc1ccc(C(=O)Nc2cc(-c3ccccc3)n[nH]2)cc1	crk3 with CYC6	IMAP fluorescence polarisation		30 µM, with L. major CYC6		inhibition	55%
CN1CCN(c2nn3c(-c4ccc([N+](=O)[O-])cc4)nnc3c3ccccc23)CC1	iron(III)	UV-Vis titration		stoichiometry 1		binding constant	< 10 M⁻¹
CCCCn1ccn2c(-c3ccc(Oc4ccnc(C)c4)c(F)c3)c(C)nc2c1=O	GRM2	agonist		no glutamate		Emax	90 ± 2%
CC[C@H](C)[C@H](NC(=O)[C@H](Cc1c[nH]c2ccccc12)NC(=O)[C@@H](N)CO)C(=O)N[C@H](C(=O)N[C@@H](CCC(=O)O)C(=O)N[C@@H](CC(C)C)C(=O)N[C@@H](CC(C)C)C(=O)N[C@@H](CCC(=O)O)C(=O)O)[C@@H](C)CC	MED23 with ELF3	SEAP reporter gene, inhibitor		10 µM, 12 h		inhibition	53%
FC(F)(F)c1c(-c2ccc(N3CCNCC3)c(Cl)c2)ccn2c(CC3CC3)nnc12	GRM2	GTPγS binding, positive allosteric modulator		together with: EC20 glutamate	relative to: control glutamate response	Emax	308 ± 31%
O=C(O)/C(O)=C/c1ccc(O)cc1	GPR35	dynamic mass redistribution, agonist	HT-29	1000 µM		agonist activity	inactive
